Measured values from different studies.
Lines come from different studies, so protocols differ. Numbers after ± are the reported error. Converted amounts (≈) assume the structure as drawn.

For `CSCC[C@H](NC(=O)[C@H](CC(=O)O)NC(=O)[C@H](CO)NC(=O)[C@H](Cc1c[nH]cn1)NC(=O)[C@H](Cc1c[nH]c2ccccc12)NC(=O)CN1CCN(CC(=O)O)CCN(CC(=O)O)CCN(CC(=O)O)CC1)C(=O)N[C@@H](CCC(=O)O)C(=O)N[C@@H](Cc1c[nH]c2ccccc12)C(=O)N[C@@H](Cc1c[nH]c2ccccc12)C(=O)N[C@@H](Cc1ccc(O)cc1)C(=O)N[C@@H](CC(C)C)C(=O)N[C@@H](CC(C)C)C(=O)NCC(=O)N[C@@H](CCCCNC(=O)COCCOCCNC(=O)CCN1C(=O)C=CC1=O)C(=O)O` [copper-64 labelled], the intact compound was over 85% (radio-HPLC; PBS; 24 h, pH 7.4, 37 °C).
With `CCCC[C@H](NC(=O)CNC(=O)CNC(=O)CN1CCN(CC(=O)O)CCN(CC(=O)O)CCN(CC(=O)O)CC1)C(=O)N[C@H]1CC(=O)NCCCC[C@@H](C(N)=O)NC(=O)[C@H](Cc2c[nH]c3ccccc23)NC(=O)[C@H](CCCNC(=N)N)NC(=O)[C@@H](Cc2ccccc2)NC(=O)[C@H](Cc2c[nH]cn2)NC1=O` [lutetium-177 labelled] the tissue uptake was 13.8 ± 2.51 %ID/g (C57 mouse, female, kidneys; intravenous, 0.037 MBq, 0.5 h).
`N=C(N)NCCC[C@@H]1NC(=O)[C@H](CCCCNC(=O)CCC(C(=O)O)N2CCCN3CCN(CCCN(C(CCC(=O)NCCCC[C@@H]4NC(=O)[C@@H](Cc5ccc(O)cc5)NC(=O)[C@H](CC(=O)O)NC(=O)CNC(=O)[C@H](CCCNC(=N)N)NC4=O)C(=O)O)CC3)CC2)NC(=O)[C@@H](Cc2ccc(O)cc2)NC(=O)[C@H](CC(=O)O)NC(=O)CNC1=O` (stereo partly shown) [copper-64 labelled] has a dose excreted of 88.2 ± 4.9% (SCID mouse; intravenous, dose not given, 24 h).
The half-life ratio of `Cc1cc(-c2ccc(NC(=O)[C@H](CCCCNC(=O)CCOCCOCCC(=O)N[C@H](Cc3ccccc3)C(=O)N[C@H]3CSSC[C@@H](C(=O)N[C@H](C(=O)O)[C@@H](C)O)NC(=O)[C@H]([C@@H](C)O)NC(=O)[C@H](CCCCN)NC(=O)[C@@H](Cc4c[nH]c5ccccc45)NC(=O)[C@H](Cc4ccc(O)cc4)NC3=O)NC(=O)CN3CCN(CC(=O)O)CCN(CC(=O)O)CCN(CC(=O)O)CC3)c(C)c2)ccc1N=Nc1ccc2c(S(=O)(=O)O)cc(S(=O)(=O)O)c(N)c2c1O` [lutetium-177 labelled] is reported as 1.8 fold (patients with metastatic neuroendocrine tumours, lymph node metastases; relative to: compound over 177Lu-EB-TATE).
The remaining intact of `C[C@@H](O)[C@@H]1NC(=O)[C@H](CCCCN)NC(=O)[C@@H](Cc2c[nH]c3ccccc23)NC(=O)[C@H](Cc2ccc(O)cc2)NC(=O)[C@@H](NC(=O)[C@@H](Cc2ccccc2)NC(=O)CN2CCN(CC(=O)O)CCN(CC(=O)O)CCN(CC(=O)O)CC2)CSSC[C@@H](C(=O)N[C@H](CO)[C@@H](C)O)NC1=O` [gallium-67 labelled] is reported as 94.4 ± 0.2% (radio-TLC; mouse plasma; 3 h, 37 °C, 67Ga-labelled).
`CC(C)C[C@H](NC(=O)[C@H](Cc1ccc(O)cc1)NC(=O)[C@@H](CCCNC(=N)N)NC(=O)[C@@H](CO)NC(=O)[C@H](Cc1ccccc1)NC(=O)[C@H](CC1CCCCC1)NC(=O)[C@H](CC(=O)O)NC(=O)CN1CCN(CC(=O)O)CCN(CC(=O)O)CCN(CC(=O)O)CC1)C(=O)N[C@@H](Cc1c[nH]c2ccccc12)C(=O)N[C@@H](CO)C(=O)O` [copper-64 labelled] has a plasma half-life of 8.5 min (radio-HPLC; human; intravenous, 200 MBq).
For `N=C(N)NCCC[C@@H]1NC(=O)[C@H](CCCCNC(=O)CNC(=O)CNC(=O)CNC(=O)CC[C@H](NC(=O)CNC(=O)CNC(=O)CNC(=O)CC[C@H](NC(=O)CN2CCN(CC(=O)O)CCN(CC(=O)O)CCN(CC(=O)O)CC2)C(=O)NCC(=O)NCC(=O)NCC(=O)N[C@@H](CCC(=O)NCC(=O)NCC(=O)NCC(=O)NCCCC[C@@H]2NC(=O)[C@@H](Cc3ccccc3)NC(=O)[C@H](CC(=O)O)NC(=O)CNC(=O)[C@H](CCCNC(=N)N)NC2=O)C(=O)NCC(=O)NCC(=O)NCC(=O)NCCCC[C@@H]2NC(=O)[C@@H](Cc3ccccc3)NC(=O)[C@H](CC(=O)O)NC(=O)CNC(=O)[C@H](CCCNC(=N)N)NC2=O)C(=O)NCC(=O)NCC(=O)NCC(=O)NCCCC[C@@H]2NC(=O)[C@@H](Cc3ccccc3)NC(=O)[C@H](CC(=O)O)NC(=O)CNC(=O)[C@H](CCCNC(=N)N)NC2=O)NC(=O)[C@@H](Cc2ccccc2)NC(=O)[C@H](CC(=O)O)NC(=O)CNC1=O` [indium-111 labelled], the tissue uptake was 1.61 ± 1.38 %ID/g (female athymic nu/nu mice, eyes; intravenous, 4 h).
`CCCC[C@H](NC(=O)COCCOCCNC(=O)CN1CCN(CC(=O)O)CCN(CC(=O)O)CC1)C(=O)N[C@H]1CC(=O)NCCCC[C@@H](C(N)=O)NC(=O)[C@H](Cc2c[nH]c3ccccc23)NC(=O)[C@H](CCCNC(=N)N)NC(=O)[C@@H](Cc2ccccc2)NC(=O)[C@H](Cc2c[nH]cn2)NC1=O` [copper-64 labelled] has a tissue uptake of 1.88 ± 0.67 %ID/g (C57 mice, spleen; intravenous, 0.37 MBq, 0.5 h).
For `CC[C@@]1(OC(=O)CCCCCCCCCCCNC(=O)C[C@H](N)C(=O)N[C@@H](CCC(=O)N[C@@H](CCC(=O)N[C@@H](CCC(=O)N[C@@H](CCC(=O)O)C(=O)O)C(=O)O)C(=O)O)C(=O)O)C(=O)OCc2c1cc1n(c2=O)Cc2cc3ccccc3nc2-1`, the aqueous solubility was 76 mg/mL (≈ 64.6 mM) (PBS; pH 7.4).
For `CN1C(=O)[C@@H](Cc2ccc(O)cc2)NC(=O)CNC(=O)[C@H](Cc2ccc3ccccc3c2)NC(=O)[C@H](CCCNC(=N)N)NC(=O)[C@H]1CCCNC(=O)c1ccc(CNC(=O)CN2CCN(CC(=O)O)CCN(CC(=O)O)CCN(CC(=O)O)CC2)cc1` [gallium-68 labelled], “absorbed dose coefficient” read 0.0132 mGy/MBq (adult reference man, from C57BL/6 mice data, gall bladder wall).
The tissue uptake of `CC(C)C[C@H](NC(=O)[C@@H](CCCCNC(=O)CCCCCNC(=O)CN1CCN(CC(=O)O)CCN(CC(=O)O)CCN(CC(=O)O)CC1)NC(=O)[C@H](Cc1ccc(O)cc1)NC(=O)[C@H](CO)NC(=O)[C@H](Cc1c[nH]c2ccccc12)NC(=O)[C@H](Cc1cnc[nH]1)NC(=O)[C@@H]1CCC(=O)N1)C(=O)N[C@@H](CCCNC(=N)N)C(=O)N1CCC[C@H]1C(=O)NCC(N)=O` [indium-111 labelled] is reported as 1.76 ± 0.58 %ID/g (female athymic nude mouse, tumor; intravenous, 0.037 MBq, 0.5 h).
With `CC(C)C[C@H](NC(=O)C[C@H](O)[C@H](CC(C)C)NC(=O)[C@H](Cc1c[nH]cn1)NC(=O)CNC(=O)[C@@H](NC(=O)[C@H](C)NC(=O)[C@H](Cc1c[nH]c2ccccc12)NC(=O)[C@H](CCC(N)=O)NC(=O)[C@@H](Cc1ccccc1)NC(=O)CCOCCOCCOCCNC(=O)CN1CCN(CC(=O)O)CCN(CC(=O)O)CC1)C(C)C)C(N)=O` [gallium-68 labelled] the remaining parent was 80.6% (radio-HPLC; fetal bovine serum; 1.9 nM, 2 h, 37 °C).
`CCCC[C@H](NC(=O)CNC(=O)CNC(=O)CN1CCN(CC(=O)O)CCN(CC(=O)O)CC1)C(=O)N[C@H]1CC(=O)NCCCC[C@@H](C(N)=O)NC(=O)[C@H](Cc2c[nH]c3ccccc23)NC(=O)[C@H](CCCNC(=N)N)NC(=O)[C@@H](Cc2ccccc2)NC(=O)[C@H](Cc2c[nH]cn2)NC1=O` [technetium-99m labelled] has a tissue uptake of 0.13 ± 0.02 %ID/g (C57 mouse, brain; iv, 0.037 MBq, 0.5 h).

Some of these lines once more:
The tissue uptake of `CC(C)C[C@H](NC(=O)[C@@H](CCCCNC(=O)CCCCCNC(=O)CN1CCN(CC(=O)O)CCN(CC(=O)O)CCN(CC(=O)O)CC1)NC(=O)[C@H](Cc1ccc(O)cc1)NC(=O)[C@H](CO)NC(=O)[C@H](Cc1c[nH]c2ccccc12)NC(=O)[C@H](Cc1cnc[nH]1)NC(=O)[C@@H]1CCC(=O)N1)C(=O)N[C@@H](CCCNC(=N)N)C(=O)N1CCC[C@H]1C(=O)NCC(N)=O` [indium-111 labelled] is reported as 1.76 ± 0.58 %ID/g (female athymic nude mouse, tumor; intravenous, 0.037 MBq, 0.5 h).
With `CC(C)C[C@H](NC(=O)C[C@H](O)[C@H](CC(C)C)NC(=O)[C@H](Cc1c[nH]cn1)NC(=O)CNC(=O)[C@@H](NC(=O)[C@H](C)NC(=O)[C@H](Cc1c[nH]c2ccccc12)NC(=O)[C@H](CCC(N)=O)NC(=O)[C@@H](Cc1ccccc1)NC(=O)CCOCCOCCOCCNC(=O)CN1CCN(CC(=O)O)CCN(CC(=O)O)CC1)C(C)C)C(N)=O` [gallium-68 labelled] the remaining parent was 80.6% (radio-HPLC; fetal bovine serum; 1.9 nM, 2 h, 37 °C).
